Assay results of several laboratories.
Compare with care: the assays were run in different laboratories. Several values in a cell are separate wells, animals, samples, runs or records. ± gives the spread as reported.

O=C1NC2(CC2)COc2ncc(F)cc2[C@H]2COCCN2c2ccn3ncc1c3n2  revertant colonies (Salmonella typhimurium; Ames test; TA97a; 150 µg/plate, 48 h, with: rat liver S9): 98 ± 15 revertants/plate
CCCC[C@H](NC(=O)CCCCCCCNC(=O)CN1CCN(CC(=O)O)CCN(CC(=O)O)CC1)C(=O)N[C@H]1CC(=O)NCCCC[C@@H](C(N)=O)NC(=O)[C@H](Cc2c[nH]c3ccccc23)NC(=O)[C@H](CCCNC(=N)N)NC(=O)[C@@H](Cc2ccccc2)NC(=O)[C@H](Cc2c[nH]cn2)NC1=O [technetium-99m labelled]  tissue uptake (C57 mouse, heart; intravenous, 0.037 MBq, 24 h): 0.04 %ID/g
O=C(CN1CN(c2ccccc2)C2(CCN(C(=O)c3cc4cn[nH]c4cn3)CC2)C1=O)NCC(F)(F)F  IC50 (Cytochrome P450 3A4 (CYP3A4, Homo sapiens, UniProt P08684); enzyme activity, inhibitor): > 50000 nM
C=CC(=O)Nc1cc(Nc2nccc(-c3cn(C)c4ccccc34)n2)c(OCC(F)(F)F)nc1N(C)CCN(C)C  contribution to substrate depletion (Cytochrome P450 3A5 (CYP3A5, Homo sapiens, UniProt P20815); substrate; 3 µM, 60 min, 3A5 isoform, liver abundance-normalized): 0.308%
O=C(Nc1cnccc1-c1ccc([18F])cc1)c1ccnc(NC(=O)C2CC2)c1  SUV (PET imaging; FVB/NJ mice, both sexes, brain; intravenous, 120 min post-injection): 0.09
Cc1nc2cccc(OCC(C)(C)C(=O)NC(C)C)c2c(N)c1C(=O)[O-].[Na+]  relative mitotic index (human peripheral blood lymphocytes; 500 g/mL, 3 h, without S9): 78%
C=C(NC(=O)c1csc(-c2nc3c(cc2O)-c2nc(cs2)C(=O)NC(C(C)O)C(=O)NC(=C(C)OC)c2nc(cs2)C(=O)NC2c4nc(cs4)C(=O)NC(COC(=O)c4c5c6c(cccc6n4O)COC(=O)C(OC4CC(C)(O)C(N(C)C)C(C)O4)C2OC5)c2nc-3cs2)n1)C(N)=O (stereo not shown)  AUC(0-inf) (ICR mice, Streptococcus pneumoniae ATCC 49169 infected, immunocompromised, blood; intravenous, 4 mg/kg/day three times daily): 351 ng·h/mL
N#C[C@@H]1CC(F)(F)CN1C(=O)CNC(=O)c1ccnc2c(NC(=O)[C@@H](N)CCCCNC(=O)CCOCCOCCOCCOCCOCCOCCNC(=O)CN3CCN(CC(=O)[O-])CCN(CC(=O)[O-])CCN(CC(=O)[O-])CC3)cccc12.[177Lu+3]  tracer uptake (U-87 MG tumour model; host not given, pancreas; 24 h, tumour-bearing): 0.04 %ID/g
Brc1cccc(-c2cc(CN3c4ccccc4C=Cc4ccccc43)on2)c1  IC50 (BJ; cytotoxicity): > 30000 nM
CNS(=O)(=O)Nc1nccc(Cc2c(C)c3ccc(Oc4ncccc4F)cc3oc2=O)c1F  IC50 (U-2940; cell viability; 7 days): > 1000 nM
CC(C)(O)c1ncc([S@](N)(=O)=NC(=O)Nc2c3c(cc4c2CCC4)CCC3)s1  nervous system adverse events (healthy human; oral, 100 mg single dose, capsule formulation): 67%
Cc1nn(-c2cccc(N)c2)c(=O)c2cnc(Nc3ccc(N4CCNCC4)cc3)nc12  IC50 (MYLK2 (Homo sapiens, UniProt Q9H1R3); kinase activity, inhibitor, SelectScreen kinase profiling): 493 nM
Nc1ncc(-c2cc(-c3cnn(CC(F)(F)F)c3)ncc2F)nc1C(=O)NC1CNCC(F)C1 (stereo not shown)  remaining binding (YANK2; KINOMEscan; 1 µM; reference: DMSO control): 100%
COC1CN([C@H]2CC[C@H]([C@@]3(C)Oc4c(Cl)cc(C(=O)NCc5c(SC)cc(C)[nH]c5=O)c(C)c4O3)CC2)C1  log2 fold change (RNA-seq, measured: SDC2 mouse homolog; mouse, HT-1376 xenograft, whole blood; dose not given; reference: vehicle): 2.15
N#C[C@@H]1CC(F)(F)CN1C(=O)CNC(=O)c1ccnc2c(NC(=O)[C@H](CCCCNC(=O)CCOCCOCCOCCOCCOCCOCCNC(=O)CN3CCN(CC(=O)[O-])CCN(CC(=O)[O-])CCN(CC(=O)[O-])CC3)NC(=O)CCCc3ccc(I)cc3)cccc12.[177Lu+3]  tracer uptake (U-87 MG tumour model; host not given, bone; 96 h, tumour-bearing): 0.4 %ID/g
CCN(CC)CC#CCNc1ccnc2cc(Cl)ccc12  mean revertants (Salmonella typhimurium; mini-Ames test; TA100; 500.0 µg/well, with rat liver S9): 15 revertants/well
COc1cccc(OC)c1-c1cc(C(=O)NC2(C(=O)O)C3CC4CC(C3)CC2C4)nn1-c1ccc(C(=O)N(C)CCOCCOCCN(C)C(=O)[C@H](CCCCNC(=O)[C@H](CC(C)C)NC(=O)C2OC2C(=O)O)NC(=O)CN2CCN(CC(=O)[O-])CCN(CC(=O)[O-])CCN(CC(=O)[O-])CC2)cc1C(C)C.[177Lu+3] (mixture of isomers)  tracer uptake (HT-29 tumour model; host not given, stomach; 24 h, tumour-bearing): 0.11 %ID/g
CC(=O)[O-].O.O.O.O.[Ni+2].[O-]c1ccc(Br)cc1C=NCCN1CCOCC1  inhibition (superoxide scavenging; 120 µM): 24.1%
Nc1nc2cc(C(=O)c3ccc(F)cc3)ccc2[nH]1  revertants (Salmonella typhimurium; Ames preincubation test; TA98; 39.0 µg/plate, without S9): 25.7 revertants/plate
N#C[C@@H]1CCCN1C(=O)CNC(=O)c1ccnc2ccc(OCCCN3CCN(C(=O)CCc4ccc(O)c(CN5CCN6CC(=O)[O][Al-]([18F])([O]C(=O)C5)[O]c5ccc(CCC(=O)N7CCN(CCCOc8ccc9nccc(C(=O)NCC(=O)N%10CCC[C@H]%10C#N)c9c8)CC7)cc5C6)c4)CC3)cc12 (stereo partly shown)  tracer uptake (U-87 MG tumour model; host not given, intestine; 1 h, tumour-bearing): 10.8 %ID/g
O=C(Nc1cnccc1-c1ccc([18F])nc1)c1ccnc(NC(=O)C2CC2)c1  SUV (FVB/NJ mice (both sexes), eyes; intravenous, dose not given, 120 min): 0.053
CC(C)Cc1ccc(C(C)C(=O)N[C@@H](CCCCNC(=O)CCOCCOCCOCCOCCOCCOCCNC(=O)CN2CCN(CC(=O)[O-])CCN(CC(=O)[O-])CCN(CC(=O)[O-])CC2)C(=O)Nc2cccc3c(C(=O)NCC(=O)N4CC(F)(F)C[C@H]4C#N)ccnc23)cc1.[177Lu+3] (stereo partly shown)  tracer uptake (U-87 MG tumour model; host not given, pancreas; 4 h, tumour-bearing): 6.55 %ID/g
Cc1ncsc1-c1ccc(C(C)NC(=O)C2CC(O)CN2C(=O)C(NC(=O)CCCCCCCCCCN2CCCC(Nc3ncc(Cl)c(Nc4ccccc4S(=O)(=O)C(C)C)n3)C2)C(C)(C)C)cc1 (stereo not shown)  log2 fold change (22Rv1; RNA-seq, measured: ZNF696 mRNA; concentration not given; reference: DMSO): -1.47
O=C1C2CC3CC1CC(C(=O)N1CCN(c4ccc([N+](=O)[O-])c5ncccc45)CC1)(C3)C2  revertant fold increase (Salmonella typhimurium; Ames test; TA1535; 0.31 µg/well, without S9; reference: vehicle): 1
COC(=O)Nc1nc2cc(C(O)c3ccc(F)cc3)ccc2[nH]1 (stereo not shown)  revertants (Salmonella typhimurium; Ames preincubation test; TA100; 437.5 µg/plate, without S9): 157 revertants/plate
COc1cccc(OC)c1-c1cc(C(=O)NC2(C(=O)O)C3CC4CC(C3)CC2C4)nn1-c1ccc(C(=O)N(C)CCCN(C)CCCN(C)C(=O)[C@H](CCCCNC(=O)[C@H](CC(C)C)NC(=O)C2OC2C(=O)O)NC(=O)CN2CCN(CC(=O)[O-])CCN(CC(=O)[O-])CCN(CC(=O)[O-])CC2)cc1C(C)C.[177Lu+3] (mixture of isomers)  tracer uptake (HT-29 tumour model; host not given, pancreas; 4 h, tumour-bearing): 0.69 %ID/g
CC(C)OCCOCc1ccc(OCC(O)CN(N=O)C(C)C)cc1 (stereo not shown)  revertant fold increase (Salmonella typhimurium; Ames test; TA1537; 5000 µg/plate, 30 % hamster S9; reference: solvent control): 0.6 fold
CCCC[C@H](NC(=O)COCCOCCNC(=O)CN1CCN(CC(=O)O)CCN(CC(=O)O)CC1)C(=O)N[C@H]1CC(=O)NCCCC[C@@H](C(N)=O)NC(=O)[C@H](Cc2c[nH]c3ccccc23)NC(=O)[C@H](CCCNC(=N)N)NC(=O)[C@@H](Cc2ccccc2)NC(=O)[C@H](Cc2c[nH]cn2)NC1=O [technetium-99m labelled]  tissue uptake (C57 mouse, liver; intravenous, 0.037 MBq, 2 h): 0.45 ± 0.04 %ID/g
CNC(=O)C1CCCN(C(=O)C2CC3CCC2N3C(=O)[C@@H]2C[C@@H](O)CN2C(=O)NCc2cccc(Cl)c2F)C1 (mixture of isomers)  remaining activity (Cytochrome P450 1A2 (CYP1A2, Homo sapiens, UniProt P05177); preincubation without NADPH; human; 0.0686 µM; reference: negative control): 89.5% and 94.3% and 96.6%
O=C(N/N=C/c1ccc(C[n+]2ccccc2)cc1)c1cc(C(=O)N/N=C/c2ccc(C[n+]3ccccc3)cc2)ncn1  ΔTm (telomeric G4 DNA hybrid-2; FRET melting; 1 µM, DNA 0.2 µM, with: duplex DNA competitor 10 µM): 2 ± 0.6 °C
CN1CCCNC(=O)c2cccc(c2)C(=O)NCCCN(C)CCCNc2cccc3c2C(=O)c2cccc(c2C3=O)NCCC1  viability (SAS; cell growth or viability, CCK-8; 5 µM, 48 h): 12.9%
N#C[C@@H]1CCCN1C(=O)CNC(=O)c1ccnc2ccc(OCCCN3CCN(C(=O)CCc4ccc5c(c4)CN4CCN6CC(=O)[O][68Ga-]([O]C(=O)C4)([O]5)[O]c4ccc(CCC(=O)N5CCN(CCCOc7ccc8nccc(C(=O)NCC(=O)N9CCC[C@H]9C#N)c8c7)CC5)cc4C6)CC3)cc12  tracer uptake (U-87 MG tumour model; host not given, stomach; 1 h, tumour-bearing): 1.3 %ID/g
CC(C)C[C@H](NC(=O)[C@H](Cc1ccc(O)cc1)NC(=O)[C@@H](CCCNC(=N)N)NC(=O)[C@@H](CO)NC(=O)[C@H](Cc1ccccc1)NC(=O)[C@H](CC1CCCCC1)NC(=O)[C@H](CC(=O)O)NC(=O)CN1CCN(CC(=O)O)CCN(CC(=O)O)CCN(CC(=O)O)CC1)C(=O)N[C@@H](Cc1c[nH]c2ccccc12)C(=O)N[C@@H](CO)C(=O)O [copper-64 labelled]  activity concentration (human, lung; concentration not given, 24 h): 126 Bq/mL and 162 Bq/mL and 89.6 Bq/mL and 290 Bq/mL and 81.7 Bq/mL and 144 Bq/mL
C=CC(=O)Nc1cccc(Cn2ncc3cnc(Nc4cnn(CCOC)c4)nc32)c1  percent of control (YSK4 human; binding, KINOMEscan; 100 nM; lower = stronger binding): 1.4%

Some of these lines once more:
O=C(Nc1cnccc1-c1ccc([18F])nc1)c1ccnc(NC(=O)C2CC2)c1  SUV (FVB/NJ mice (both sexes), eyes; intravenous, dose not given, 120 min): 0.053
Cc1nc2cccc(OCC(C)(C)C(=O)NC(C)C)c2c(N)c1C(=O)[O-].[Na+]  relative mitotic index (human peripheral blood lymphocytes; 500 g/mL, 3 h, without S9): 78%
O=C(CN1CN(c2ccccc2)C2(CCN(C(=O)c3cc4cn[nH]c4cn3)CC2)C1=O)NCC(F)(F)F  IC50 (Cytochrome P450 3A4 (CYP3A4, Homo sapiens, UniProt P08684); enzyme activity, inhibitor): > 50000 nM
C=CC(=O)Nc1cccc(Cn2ncc3cnc(Nc4cnn(CCOC)c4)nc32)c1  percent of control (YSK4 human; binding, KINOMEscan; 100 nM; lower = stronger binding): 1.4%
CC(C)Cc1ccc(C(C)C(=O)N[C@@H](CCCCNC(=O)CCOCCOCCOCCOCCOCCOCCNC(=O)CN2CCN(CC(=O)[O-])CCN(CC(=O)[O-])CCN(CC(=O)[O-])CC2)C(=O)Nc2cccc3c(C(=O)NCC(=O)N4CC(F)(F)C[C@H]4C#N)ccnc23)cc1.[177Lu+3] (stereo partly shown)  tracer uptake (U-87 MG tumour model; host not given, pancreas; 4 h, tumour-bearing): 6.55 %ID/g
